# Published values collected from several papers.
# A part holds a random share of what one study measured. Changes are numbered by the printed parent chain.

# Series 1 — target: FOSL1, bZIP domain (human); technique: DHFR protein complementation; sample: yeast; reference: wild-type JUN-FOS pair; reading: higher = stronger binding
# Notes: single substitutions, most at no-binding floor
# Starting sequence: JUN, bZIP domain (human); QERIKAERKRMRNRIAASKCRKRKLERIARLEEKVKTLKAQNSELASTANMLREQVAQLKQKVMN; partner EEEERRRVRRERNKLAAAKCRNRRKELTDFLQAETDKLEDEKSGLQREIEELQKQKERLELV
Substitution,binding fitness
Q55P,-1.52 natural log
I28H,-0.663 natural log
S47F,-0.465 natural log
K36T,-0.643 natural log
K36I,-0.575 natural log
V35D,-1.38 natural log
L38N,-1.36 natural log
L59Q,-1.36 natural log
A57T,-0.372 natural log
T37P,-1.38 natural log
A29C,-0.687 natural log
A46V,-0.545 natural log
R53N,-1.24 natural log
A29K,-0.52 natural log
T48N,-0.807 natural log
L45V,-1.3 natural log

# Series 2 — target: CCND2, cyclin fold, Cln2 fusion (human); technique: yeast growth competition, sequencing; sample: yeast; notes: weak parent motif; reference: not given; reading: higher = stronger binding
# Starting sequence: HIRA docking peptide (human); SLSKRKLELEVET; partner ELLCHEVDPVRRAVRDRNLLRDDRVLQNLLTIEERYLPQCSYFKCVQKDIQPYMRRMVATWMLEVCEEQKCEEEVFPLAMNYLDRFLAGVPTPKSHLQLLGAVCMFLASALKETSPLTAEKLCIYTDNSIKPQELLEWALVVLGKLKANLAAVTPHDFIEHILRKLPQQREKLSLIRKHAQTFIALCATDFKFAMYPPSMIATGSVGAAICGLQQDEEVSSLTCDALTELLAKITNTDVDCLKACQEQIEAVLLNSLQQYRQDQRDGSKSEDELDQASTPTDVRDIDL
Substitution,normalised enrichment score
SLSKRKLEAEVET [L9A],0.73
SLSKKKLEFEVET [R5K L9F],0.0222
SLSKKKLELEVET [R5K],0.43
SLSKRKLELEAET [V11A],-0.0301
SLSKRALELEVET [K6A],0.246
SLSKAKAELEVET [R5A L7A],0.228
ALSKRKLELEVET [S1A],0.455
SLSKRKLELEVAT [E12A],-0.185
SLSKRKAELEVET [L7A],-0.348
SLSKRKLALEVET [E8A],0.403

# Series 3 — technique: RNA Bind-n-Seq; form: RNA; sample: in vitro; concentration: not given; reference: input RNA pool; reading: higher = stronger binding
# Target: RING finger protein unkempt homolog, zinc fingers 1-6, GST-SBP tag (UNK, Homo sapiens, UniProt Q9C0B0, residues 30-357)
# Notes: RNA with constant flanks, human-mouse chimeric sites, ends assumed
# Target sequence (chain): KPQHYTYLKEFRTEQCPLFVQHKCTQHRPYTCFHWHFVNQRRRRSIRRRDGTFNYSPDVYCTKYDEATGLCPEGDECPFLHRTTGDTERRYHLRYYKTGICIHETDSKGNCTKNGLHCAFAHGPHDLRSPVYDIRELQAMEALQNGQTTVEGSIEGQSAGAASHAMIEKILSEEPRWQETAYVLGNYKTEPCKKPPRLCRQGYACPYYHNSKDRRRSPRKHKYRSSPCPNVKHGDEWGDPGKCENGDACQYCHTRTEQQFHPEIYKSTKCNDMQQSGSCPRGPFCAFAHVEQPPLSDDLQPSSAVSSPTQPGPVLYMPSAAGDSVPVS
Oligonucleotide,bound/input enrichment
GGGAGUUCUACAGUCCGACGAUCUCGGAUGCUGUGCUGGGUCACUUUUCAUAUCCAGAUCCUUCACAGUGGACAGAUGAAGAACUGGGAAUCCCUCCUGAUGAUGAAGACUGACACUGUAGACUCAGCCUACGAGUAGGAGCACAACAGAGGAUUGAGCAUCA,0.242 ratio
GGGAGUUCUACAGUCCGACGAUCGCUCUUGGGAAUGUAAUCAGCGCCUUGGGGGACAAGAGCAAGAGAGCCACCCAUGUCCCUUACAGAGACUCUAAGCUAACAAGACUACUACAGGAUUCCCUUGGGGGUAACAGCCAAACCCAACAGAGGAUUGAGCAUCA,0.155 ratio
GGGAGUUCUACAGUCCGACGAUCGUGCCCUUCUCGCUGCUGCGGAGCCCGCCCAGCUGGGCAUUCCGGGACUGGUACCCUCCGCAUAGCCGCCUCUUCGAUCAAGCUUUCGGGGUGCCCCGGUUGCCCGAUGAGUGGUCGCAGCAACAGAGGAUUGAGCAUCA,0.0799 ratio
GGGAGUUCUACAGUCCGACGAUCCGCUUGGAUGAGGCUGGUGUCACAGAUGAAGUGCUAGAUUCUGCCAUGCAAGCCUUCCUUCUGGAGGUCAUUGUUAAGCAUGGGGAGCCGGCACCUUAUUUAUGUAACAAAGAUCCGUUUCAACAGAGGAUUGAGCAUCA,0.129 ratio
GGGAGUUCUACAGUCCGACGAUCUCUGGUCACACUCGUGUGUAUGGUGUUUGCUUUGUGGACACUUCACUGGGAAAGUUUUUCAUCGGCCAGUUUUCGGAUGACCGCCACUGUUCCAGAUUUAGGACGCUAGUGGCUCACUAUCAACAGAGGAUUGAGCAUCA,0.239 ratio
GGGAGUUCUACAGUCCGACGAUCGGGACUGAUUCAUCCCAAGGACAGGCCACCCCAUUUGAUGCCUGGACUGAUGACAGUAUGUUAGGGCCUAGUCAAAAUUUUGAAGCUGAGUCAAUUCAGGAUGCCAUGAGUAUGGAAGAGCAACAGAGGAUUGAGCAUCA,1.07 ratio
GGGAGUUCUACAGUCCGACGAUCAAAGUGAUGACUAUGUUUGUACAGCGACAGGUGUUUGCGGAGAGCAAAGAUGAGAUUGCGUUAGUCCUCUAUGGCACAGAUGGCACUGAUAAUGCCCUUGCUGGCAAGGACCAGUAUCAGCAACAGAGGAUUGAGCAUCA,0.196 ratio
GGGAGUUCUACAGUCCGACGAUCGAGUCGAUUAUGGAAACAACAAUUCGUUAUCUUGCAGAGCUUCGGUGCACUUGCUUGGCGAUAGCAUUGGGGUUUUAUAGGUUCUGGAAGGAGAACUGACGAUGAUGCUGCCGCUGCUGCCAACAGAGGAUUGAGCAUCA,0.224 ratio
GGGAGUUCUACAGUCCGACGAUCAAAGAUCUACUGAGGCAAGGCAGCAAAUUUAGGAGAGAUGUAUCAACAAUAUUGAUAGAGUUAGGAUUCCAAAUUAAAAAGAAAACUAAGACAUUAUACAUCAACAAAGCCAAUGUGUGGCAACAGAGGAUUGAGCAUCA,3.28 ratio
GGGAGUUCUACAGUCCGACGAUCAGAUUCCCCCUCCUGAGACCUCCUCCGAAAUUGGCAUCUCUUAUAGAUGCCUCAUCCCCUGUUAGCGUUUUAGUUUGGACCACCCAGCCUUGGACAAUUCCCGCCAACCAGGCAAUUUGCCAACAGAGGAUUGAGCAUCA,1.33 ratio
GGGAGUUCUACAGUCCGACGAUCGUAAUGUUUAUUCAUUUAACUUAUUUUUAUAGCUAGAUAAAUAUUGUUAGUCUUAGUCAAUAGCUCACAUUUUUUGAGAAGCAUGCCCUCCCUGUCCAUUUGUCUUAUAACAUGACCCAGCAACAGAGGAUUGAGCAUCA,41.1 ratio

# Series 4 — technique: protein binding microarray; form: double-stranded DNA, one strand shown; sample: in vitro; concentration: not given; reference: not given; reading: higher = stronger binding
# Target: Histone acetyltransferase KAT6A, winged helix 2, GST fusion (KAT6A, Homo sapiens, UniProt Q92794, residues 85-181)
# Notes: 8-mer, flanks averaged, mean of 2 arrays, mostly near background
# Target sequence (chain): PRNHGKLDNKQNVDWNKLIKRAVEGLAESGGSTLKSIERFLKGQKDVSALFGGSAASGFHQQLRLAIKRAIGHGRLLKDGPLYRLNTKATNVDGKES
Oligonucleotide,E-score
CGTTTACA,0.0474
GTTCTAGA,-0.0257
TAATTGCA,0.116
GGCATCTA,-0.0977
AGGAGGAT,-0.0264
GGCCTGGA,-0.0969
CCAAACAG,0.0443
GGAGAAGA,-0.0422
GTTCATGA,-0.0315
AGCTCCCG,-0.0996
CGGGGCCC,0.0738
CGGTGGTA,0.0625
TCCCCGGA,0.132
ATCACCGG,-0.0925
ACCGAGCA,0.187
TCAGTCCA,-0.108
AAGCCCTT,-0.175
ACCTCGAG,0.0156
CAATTACG,-0.185
CTAAGCTA,-0.0121
GTCTCCAA,-0.0576
GTCACGAA,-0.0676

# Series 5 — technique: RNA Bind-n-Seq; form: RNA; sample: in vitro; concentration: 1 µM; notes: whole 134-nt RNA, ends assumed; added: 150 mM KCl; reference: input library; reading: higher = stronger binding
# Target: Ras GTPase-activating protein-binding protein 1, RRM domain (G3BP1, Homo sapiens, UniProt Q13283)
# Sequence of UniProt Q13283 (whole entry, looked up): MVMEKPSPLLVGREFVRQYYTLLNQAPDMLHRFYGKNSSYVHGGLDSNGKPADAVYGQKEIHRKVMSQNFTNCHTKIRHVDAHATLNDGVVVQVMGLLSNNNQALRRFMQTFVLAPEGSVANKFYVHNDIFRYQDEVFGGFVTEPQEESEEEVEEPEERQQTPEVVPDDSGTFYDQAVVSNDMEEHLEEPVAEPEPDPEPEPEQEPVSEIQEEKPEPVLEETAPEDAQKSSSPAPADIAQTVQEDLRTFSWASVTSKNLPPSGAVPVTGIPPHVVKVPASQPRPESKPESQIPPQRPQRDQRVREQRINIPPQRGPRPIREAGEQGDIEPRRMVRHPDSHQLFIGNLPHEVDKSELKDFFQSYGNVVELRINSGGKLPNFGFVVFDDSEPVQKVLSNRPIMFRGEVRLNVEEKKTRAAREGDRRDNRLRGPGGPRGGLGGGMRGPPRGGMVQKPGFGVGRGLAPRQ
Oligonucleotide,log2 enrichment
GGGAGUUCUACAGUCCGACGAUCUGUGCUACACAUCGUAUGUACCGAAUCGGGGUUUUUUUGGGUUUUUUUGGGGUUUUUUUGGGGAAAGUAUUAUGUUACGCCGUUCGGAUCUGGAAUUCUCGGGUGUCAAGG,-0.197
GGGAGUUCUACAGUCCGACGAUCGCAGGAAGUAAAAACAAAUGGAAAUGCUUCGGAUAGUGGCAGGGGUGGGGGUUGCUAAGGAAAGGAUGGGAUGGGAGUGGGUAAAGAGUUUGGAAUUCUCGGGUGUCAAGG,1.11
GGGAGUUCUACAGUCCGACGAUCCACAGACAACACGCACCCACACAGACACAGAGGGAAGGGGUUGGGAUGGGGACAGGGUGCACAGCAGGGCGGGGAAGGACCCCAGCCCCUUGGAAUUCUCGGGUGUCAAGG,-0.189
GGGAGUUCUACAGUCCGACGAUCAAGUCCUGUGCUACACAUCGUAUGUACCGAAUCGGGUUUUUGGGUUUUUGGGAGGGAAAGUAUUAUGUUACGCCGUUCGGAUCUGCACUUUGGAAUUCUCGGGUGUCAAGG,0.346
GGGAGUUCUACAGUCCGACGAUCUCAAGUCCUGUGCUACACAUCGUAUGUACCGAAUCGGGAAGGGAAGGGAAGGGGAAAGUAUUAUGUUACGCCGUUCGGAUCUGCACUUCCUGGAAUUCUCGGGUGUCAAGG,1.11
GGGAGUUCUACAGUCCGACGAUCCAAGUCCUGUGCUACACAUCGUAUGUACCGAAUCGGGGUUUUGGUUUUGGUUUUGGAAAGUAUUAUGUUACGCCGUUCGGAUCUGCACUUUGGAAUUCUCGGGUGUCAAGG,-0.507
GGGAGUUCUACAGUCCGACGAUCAGUCCUGUGCUACACAUCGUAUGUACCGAAUCGGGGUUUUUGGGGUGGGGAAAGGGGAAAGUAUUAUGUUACGCCGUUCGGAUCUGCACUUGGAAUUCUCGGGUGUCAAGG,1.05
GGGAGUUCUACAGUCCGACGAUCCUCAAGUCCUGUGCUACACAUCGUAUGUACCGAAUCGGAAAGGAAAGGGAAAGGAAAGUAUUAUGUUACGCCGUUCGGAUCUGCACUUCCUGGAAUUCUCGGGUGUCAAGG,-0.226
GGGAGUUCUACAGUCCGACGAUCAAGUCCUGUGCUACACAUCGUAUGUACCGAAUCAAACCCCCAAAUUUAAACCCAAAAAAGUAUUAUGUUACGCCGUUCGGAUCUGCACUUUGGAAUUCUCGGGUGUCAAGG,-0.177
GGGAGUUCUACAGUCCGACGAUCUCAAGUCCUGUGCUACACAUCGUAUGUACCGAAUCGGAAAAAGGUUUGGUUUGGAAAGUAUUAUGUUACGCCGUUCGGAUCUGCACUUCCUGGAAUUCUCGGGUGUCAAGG,-0.207

# Excerpt of the above (series 4):
Oligonucleotide,E-score
TAATTGCA,0.116
GGAGAAGA,-0.0422
CCAAACAG,0.0443
CGGGGCCC,0.0738
CGTTTACA,0.0474
AGGAGGAT,-0.0264
AGCTCCCG,-0.0996
CGGTGGTA,0.0625
GTTCTAGA,-0.0257
GTCTCCAA,-0.0576
GGCCTGGA,-0.0969
